Published values of several laboratories.
Numbered parts are unrelated; each lists some results of a single study. Positions count from the first letter of the parent shown.

Series 1 — method: protein-binding microarray; form: double-stranded DNA, one strand shown; sample: in vitro; tested at: 940 nM top; notes: 60-bp whole probe; added: salmon DNA 0.4 mg/ml; baseline: random background probes; direction: higher = stronger binding; constant ends, left off below: GCCTAGCAC … GTCTTGATTCGCTTGACGCTGCTG
Target: Interferon regulatory factor 5, full length, phosphomimetic (IRF5, Homo sapiens, UniProt Q13568-2, residues 1-514, S451D/S453D/S456D/S462D)
| Sequence | fitted relative affinity [z-score] |
| --- | --- |
| TCAAATTTTTTTTCTAAACTGTGCTAG | 0.475 |
| TCTCTGCTACCCTCTGAAAGTGTGCTA | 3.91 |
| CCTCGTCTCTATCAAAAATAGTGCTAG | 1.34 |
| CACGGACTGGGTCTCGGGACGTGCTAG | -0.201 |
| GACGATTGCAGACTGGAGACGTGCTAG | -0.491 |
| TTAGATTTCAGACTGGATGAGTGCTAG | -0.446 |
| TCATGTGTCAGGTTTACTACTGTGCTA | -0.0296 |
| GTTAGAATGTCCTTTCTCCATGTGCTA | -0.204 |
| GTGTTTCTCAACCATTTTGTTGTGCTA | 1.41 |
| TTAGGTTTCCTAATCCTTTAGTGCTAG | 0.859 |
| GTTGGGGCGGGGCGGGGTGGGTGCTAG | 3.2 |
| GACGGTTTCGGGGTTCGGGACGTGCTA | 7.12 |
| GACGCTTTCAGTCTCGAGACGTGCTAG | 2.73 |
| GACGAAATCGGGTATCGAGACGTGCTA | 0.941 |
| GACGATTTCAGACTTGAGACGTGCTAG | -0.374 |
| TGGGTCTTGGTTCTCAGCTTGTGCTAG | 0.586 |
| GCCGGTATCGGGACTGGGGACGTGCTA | 3.81 |
| TTAGGACTGCTACTGCCTTAGTGCTAG | -0.213 |
| GTAGGTATCCTACTGCTTTAGTGCTAG | -0.307 |

Series 2 — method: RNA Bind-n-Seq; form: RNA; sample: in vitro; tested at: not given; baseline: input RNA pool; direction: higher = stronger binding
Target: RING finger protein unkempt homolog, zinc fingers 1-6, GST-SBP tag (UNK, Homo sapiens, UniProt Q9C0B0, residues 30-357)
Notes: RNA with constant flanks, human-mouse chimeric sites, ends assumed
Constant ends, left off below: GGGAGUUCUACAGUCCGACGAUC … CAACAGAGGAUUGAGCAUCA
Construct (chain): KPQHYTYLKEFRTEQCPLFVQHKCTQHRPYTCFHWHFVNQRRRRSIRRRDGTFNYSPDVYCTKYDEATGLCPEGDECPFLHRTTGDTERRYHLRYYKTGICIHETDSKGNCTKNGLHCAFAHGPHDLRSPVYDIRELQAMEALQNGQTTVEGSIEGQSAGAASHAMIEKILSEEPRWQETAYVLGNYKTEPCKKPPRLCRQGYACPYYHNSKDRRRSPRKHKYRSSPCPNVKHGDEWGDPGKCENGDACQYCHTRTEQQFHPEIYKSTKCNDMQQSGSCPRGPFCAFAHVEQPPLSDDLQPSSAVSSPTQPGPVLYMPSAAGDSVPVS
| Sequence | bound/input enrichment [ratio] |
| --- | --- |
| UCUUAACUUAUUCAUUUCUUAUUUUUAUAUAGCUAGAUAAAUAUUGUUAGUCUUAGACAAUAGCUCACAUUUUUUGAGAAGCAUGCCCUCCCUGUCCAUUGGGCCCAUAACAUGACCCAG | 139 |
| GAAACAUUUAAAUUUAAAGAAGCUGUUGUUCUAGGAAGUACGGACUUCCUAGAAGAUGAUAUAGAGAAAAUUGUAGAAGAACUGGGGAAAGAGUAUAAGGGCAACGCCUACCAUCUGAUG | 1.23 |
| ACCAUUUCUGAAUACACAGGUUUUGUGGUAGUUCACUUACGGUAUUAAAUUAUUAUUCUGCUUAGCUUAUAAUAAGGAUAAUUGCAUUUAAAGAGGUUACUGAAUGUUACUCUGAAACUU | 0.418 |
| GUAUUUGUGCGCUCCCCACUCGUGUUUUUAAGUGUAUUUUUAUAAGAUACAUGUAUUUACAAUUGAGCUUUUGUUACAUAAUGCUGAAAACAUCUCUGAGAUUAUGAAAAAUGUUUCAAU | 0.111 |
| GCGGCAGAAUCAUGGAGGACAUGAUGGAGCUCCCCAAAGCGCGCGUCAACGCCAGCAUGUUACCACAGUAUAUCGACAAGCCUGUCUGCUUCGUGGGGAAGCUGGAAAAGAUUCAUCCCA | 0.141 |
| GUAAUGUUUAUUCAUUUAACUUAUUUUUAUAGCUAGAUAAAUAUUGUUAGUCUUAGACAAUAGCUCACAUUUUUUGAGAAGCAUGCCCUCCCUGUCCAUUUGUCUUACAAUAACACUCAG | 9.16 |
| UUGCCUGAGAACGAGGAUGAGCUGGAGAGCACCAACAGGCGCUACACCAAGAGGGACUGCAGCACUUUCCUCAGAACUAGCGAGACGGGCAUCGUGGACCAGGUCAUGGUCACUCUCAAC | 0.0673 |
| ACCUCCCCCUCCCGCCUGCUUUUUGAACCGCUUUUUGGAAAGUUUUUGGCGUUUCUUUUCCUUCCCCAUACAAAGUGAUUACAGUUUAGAGUCUAUGGGUCUAUCGAAGGGCUUGACGGA | 0.766 |

Series 3 — method: DHFR PCA, dose-response; sample: yeast; notes: Hill fit, mean, not affinity; added: (+)-ABA, dose series; direction: lower = more sensitive
Target: ABI1, truncated, D143A, DHFR fusion (Arabidopsis thaliana, UniProt P49597)
Starting sequence: PYL1, truncated, DHFR fusion (Arabidopsis thaliana, UniProt Q8VZS8); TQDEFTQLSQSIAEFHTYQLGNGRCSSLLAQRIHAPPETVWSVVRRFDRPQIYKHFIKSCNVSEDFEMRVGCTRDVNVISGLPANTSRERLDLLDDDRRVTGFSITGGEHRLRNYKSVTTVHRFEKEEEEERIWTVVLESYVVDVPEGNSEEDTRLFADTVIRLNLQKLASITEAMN
| Change | ABA EC50 |
| --- | --- |
| T106K | 25.7 µM |
| P37S | 17.3 µM |
| R90V | 4.25 µM |
| N114K | 49.7 µM |
| H34L | 3.25 µM |
| E4R | 7.3 µM |
| R132C | 1.24 µM |
| E4W | 2.18 µM |
| V76I | 0.611 µM |
| E64M | 3.97 µM |
| V76R | 917 µM |
| R24Y | 22.4 µM |
| V43L | 4.65 µM |

Series 4 — target: CCND3, cyclin fold, Cln2 fusion (human); method: yeast growth competition, sequencing; sample: yeast; notes: weak parent motif; baseline: not given; direction: higher = stronger binding
Starting sequence: SAMHD1 docking peptide (human); ASKSRVQLFKDDP; partner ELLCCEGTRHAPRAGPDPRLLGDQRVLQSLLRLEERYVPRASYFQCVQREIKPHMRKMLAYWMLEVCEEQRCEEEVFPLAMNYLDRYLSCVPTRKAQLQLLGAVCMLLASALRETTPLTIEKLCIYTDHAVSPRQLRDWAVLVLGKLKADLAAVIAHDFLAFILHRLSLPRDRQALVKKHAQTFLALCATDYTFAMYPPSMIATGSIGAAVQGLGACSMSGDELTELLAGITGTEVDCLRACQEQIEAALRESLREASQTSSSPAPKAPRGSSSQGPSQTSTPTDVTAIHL
| Change | normalised enrichment score |
| --- | --- |
| ASKSRVCLFKDDP [Q7C] | 0.0797 |
| ASKSAVQLFKDDP [R5A] | 0.328 |
| ASKSRVQLEKDDP [F9E] | -0.0336 |
| ASFSRVQLFKDDP [K3F] | 0.00288 |
| ASKSYVQLFKDDP [R5Y] | -0.0903 |
| ASKSRCQLFKDDP [V6C] | 0.0603 |
| ASKSRVQCFKDDP [L8C] | 0.0638 |
| ASKSRGQLFKDDP [V6G] | 0.0916 |
| ASKSRVQLFKWDP [D11W] | 0.087 |
| AFKSRVQLFKDDP [S2F] | 0.152 |
| ASVSRVQLFKDDP [K3V] | -0.125 |
| ASKSRVQLIKDDP [F9I] | 0.0644 |
| ASKSRVFLFKDDP [Q7F] | 0.489 |
| ASKSRTQLFKDDP [V6T] | 0.0282 |

Further values, each from its own experiment
| Substance | target | assay | test system | setting | scale | endpoint | value |
| --- | --- | --- | --- | --- | --- | --- | --- |
| PhoQ, residues 284 288 289 292 302 303 SLANKL | PhoP, residues 12 14 15 18 19 LQHIR (Escherichia coli, UniProt P23836) | Sort-seq, item: YFP reporter | E. coli | PhoQ-PhoP variant library, added: 10 µM Mg2+ | baseline: high Mg2+ state, higher = stronger signaling | fold induction | 7.71 |

For quick reference, copied from above (series 1):
| Sequence | fitted relative affinity [z-score] |
| --- | --- |
| GTTAGAATGTCCTTTCTCCATGTGCTA | -0.204 |
| GACGGTTTCGGGGTTCGGGACGTGCTA | 7.12 |
| GACGATTGCAGACTGGAGACGTGCTAG | -0.491 |
